{"data": "Experimental data of several laboratories", "note": "Every numbered part comes from another study and shows a few of its results, in no order."}
{"data": "Study 1", "organism": "Plasmodium berghei", "action": "inhibitor", "cells": "Huh-7", "strain": "GFP-expressing, liver stage", "tested at": "10 µM", "time": "24 h", "relative to": "untreated control"}
{"SMILES": "CN(C)C(=S)SSC(=S)N(C)C", "infection rate": "16.7%"}
{"SMILES": "NC(=O)CN1CCCC1=O", "infection rate": "96.8%"}
{"SMILES": "COP(=S)(OC)Oc1cc(Cl)c(Cl)cc1Cl", "infection rate": "98.4%"}
{"SMILES": "Oc1ccc(Cl)cc1", "infection rate": "90.7%"}
{"SMILES": "CNC(C)C(O)c1ccccc1 (stereo not drawn)", "infection rate": "102%"}
{"data": "Study 2", "organism": "Sarcocystis neurona", "read-out": "parasite activity", "tested at": "10 µM", "time": "96 h"}
{"SMILES": "CC[C@@H](C(N)=O)N1CCCC1=O", "activity class": "inactive"}
{"SMILES": "C[C@]12CC[C@H](O)CC1=CC[C@@H]1[C@@H]2CC[C@]2(C)C(=O)CC[C@@H]12", "activity class": "inactive"}
{"SMILES": "Oc1ccc2c3c1O[C@H]1[C@@H](O)CC[C@@]4(O)[C@@H](C2)N(CC2CCC2)CC[C@]314", "activity class": "inactive"}
{"SMILES": "NCCc1ccccn1", "activity class": "inactive"}
{"data": "Study 3", "target": "Sodium-dependent dopamine transporter (SLC6A3, Homo sapiens, UniProt Q01959)", "read-out": "binding", "technique": "radioligand binding", "sequence of UniProt Q01959 (whole entry, looked up)": "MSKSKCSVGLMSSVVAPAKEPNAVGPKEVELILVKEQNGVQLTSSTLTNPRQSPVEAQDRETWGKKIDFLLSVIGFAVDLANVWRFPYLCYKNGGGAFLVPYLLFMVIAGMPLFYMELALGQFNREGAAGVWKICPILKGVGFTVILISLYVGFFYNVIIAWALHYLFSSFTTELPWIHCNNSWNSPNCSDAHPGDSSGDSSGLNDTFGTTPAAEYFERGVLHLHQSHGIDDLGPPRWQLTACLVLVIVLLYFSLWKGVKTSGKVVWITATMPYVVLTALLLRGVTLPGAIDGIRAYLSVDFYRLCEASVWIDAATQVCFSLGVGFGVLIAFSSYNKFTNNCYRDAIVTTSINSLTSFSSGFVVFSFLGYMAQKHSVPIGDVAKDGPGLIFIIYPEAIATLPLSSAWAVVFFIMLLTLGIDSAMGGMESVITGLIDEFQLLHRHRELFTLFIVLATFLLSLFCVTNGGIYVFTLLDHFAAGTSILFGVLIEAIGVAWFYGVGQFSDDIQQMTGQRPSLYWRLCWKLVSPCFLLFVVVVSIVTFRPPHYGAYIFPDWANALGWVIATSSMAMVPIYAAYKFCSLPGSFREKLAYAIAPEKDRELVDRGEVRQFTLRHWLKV"}
{"Structure (SMILES)": "Cc1ccc(-c2cnc([C@@]3(O)CC[C@H](C(=O)O)C(C)(C)C3)s2)cc1Nc1cccc(C(F)(F)F)n1", "Ki [µM]": "> 10"}
{"Structure (SMILES)": "N#CN1CC[C@@H](C(=O)Nc2nc3c(s2)CN(C(=O)CN=[N+]=[N-])CC3)C1", "Ki [µM]": "> 10"}
{"Structure (SMILES)": "O=C(Nc1ccc(-n2nc(-c3cccnc3)cc2C(F)(F)F)cn1)c1ccc(-c2ccccc2)c(F)c1", "Ki [µM]": "> 10"}
{"Structure (SMILES)": "O=C(NNS(=O)(=O)c1ccccc1)c1cc(-c2ccnnc2)ccc1F", "Ki [µM]": "> 10"}
{"Structure (SMILES)": "O=C1c2ccc(Nc3ccc(F)cc3F)cc2CCc2ccc(OC[C@H](O)CO)cc21", "Ki [µM]": "> 10"}
{"data": "Study 4", "target": "Beta-1 adrenergic receptor (ADRB1, Homo sapiens, UniProt P08588)", "action": "antagonist", "sequence of UniProt P08588 (whole entry, looked up)": "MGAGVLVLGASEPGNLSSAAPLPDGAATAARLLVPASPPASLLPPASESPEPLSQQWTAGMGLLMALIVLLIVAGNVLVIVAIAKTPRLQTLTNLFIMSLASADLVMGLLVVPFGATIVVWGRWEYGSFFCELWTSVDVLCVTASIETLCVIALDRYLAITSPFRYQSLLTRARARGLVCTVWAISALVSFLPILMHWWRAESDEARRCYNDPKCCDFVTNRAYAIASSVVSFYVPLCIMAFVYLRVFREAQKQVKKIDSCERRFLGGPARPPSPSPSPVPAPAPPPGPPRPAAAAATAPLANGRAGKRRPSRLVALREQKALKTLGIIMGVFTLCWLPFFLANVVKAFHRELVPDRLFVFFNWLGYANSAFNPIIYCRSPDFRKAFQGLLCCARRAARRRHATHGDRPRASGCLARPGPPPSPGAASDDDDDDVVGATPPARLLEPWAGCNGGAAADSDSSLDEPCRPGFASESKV"}
{"SMILES": "Oc1ccc(OC[C@@H]2CNCC[C@H]2c2ccc(F)cc2)cc1O", "IC50": "≥ 100 µM"}
{"SMILES": "CCC(O)c1cc2n(n1)CCN(c1nc(-c3ccccc3)nc3c1CCC3)C2 (stereo not drawn)", "IC50": "≥ 100 µM"}
{"SMILES": "Cc1[nH]c2ccc(O)cc2c1CCN", "IC50": "≥ 100 µM"}
{"SMILES": "CNCCc1ccc(O)c(O)c1", "IC50": "≥ 100 µM"}
{"note": "A few entries again (study 1):"}
{"SMILES": "CNC(C)C(O)c1ccccc1 (stereo not drawn)", "infection rate": "102%"}
